Experimental data from different studies.
Protocols differ between the studies behind these lines. “And” joins repeats or separate records; there may be more than shown. Numbers after ± are the reported error.
USP5: Ubiquitin carboxyl-terminal hydrolase 5 (USP5, Homo sapiens, UniProt P45974)
CASP4: Caspase-4 (CASP4, Homo sapiens, UniProt P49662)
CASP9: Caspase-9 (CASP9, Homo sapiens, UniProt P55211)

Under Δemax, `CC[C@H](C)[C@@H]1NC(=O)[C@H](Cc2ccccc2)NC(=O)[C@H](CCC(=O)O)NC(=O)[C@H](CCCNC(=N)N)NC(=O)CNC(=O)[C@@H](NC(=O)[C@H](CC(C)C)NC(=O)[C@H](CCCNC(=N)N)NC(=O)[C@@H](NC(=O)CNC(=O)[C@H](Cc2ccc(O)cc2)NC(=O)[C@@H]2CCCN2C(=O)[C@H](C)NC(=O)[C@H](C)NC(=O)[C@@H](N)CCCNC(=N)N)C(C)C)CSSC[C@@H]2NC(=O)[C@@H](NC(=O)[C@H](CO)NC(=O)[C@H](CO)NC(=O)[C@H](CO)NC(=O)[C@H](CC(C)C)NC(=O)CNC(=O)[C@H](C)NC(=O)[C@H](CC(C)C)NC(=O)[C@@H](NC(=O)[C@@H](N)CC(=O)O)C(C)C)CSSC[C@H](NC(=O)CNC(=O)[C@H](Cc3c[nH]c4ccccc34)NC(=O)[C@H](CCCCN)NC2=O)C(=O)N[C@@H](CO)C(=O)N[C@@H](CCCCN)C(=O)N[C@@H](CO)C(=O)N[C@@H](CCC(=O)O)C(=O)N[C@@H]([C@@H](C)CC)C(=O)N[C@@H](CO)C(=O)N[C@@H](CO)C(=O)N[C@@H](CC(C)C)C(=O)N[C@H](C(=O)O)CSSC[C@@H](C(=O)NCC(=O)NCC(=O)N[C@@H](CO)C(=O)N[C@@H](CCCNC(=N)N)C(=O)N[C@@H](Cc2c[nH]c3ccccc23)C(=O)O)NC(=O)[C@H]([C@@H](C)O)NC(=O)[C@H](Cc2ccccc2)NC(=O)[C@H]([C@@H](C)CC)NC(=O)[C@H](C(C)C)NC(=O)[C@H](C)NC(=O)[C@H](CCCNC(=N)N)NC1=O` is recorded as “inactive” (RXFP4 (Homo sapiens, UniProt Q8TDU9, E100A); E100A mutant; relative to: wild type).
Under “probe labelling ratio”, `CCCCCC(O)/C=C/C=O` (centres unmarked) is recorded as 0.62 (Heat shock 70 kDa protein 4 (Homo sapiens, UniProt P34932); acylphosphate-ATP probe SILAC-ABPP, item: HSPA4; ZAK-transfected HEK293T; 100 µM, together with: acylphosphate-ATP probe; relative to: DMSO over compound-treated).
The IC50 of `OC[C@@H]1[C@@H](O)[C@H](O)[C@@H](O)CN1CCCCCOCc1ccc(-c2ccc(F)cc2)cc1` is reported as 0.025 µM (Ugcg (Mus musculus, UniProt O88693); enzyme activity, inhibitor, fluorescence).
`O=c1c(=NO)c(=NO)c(=O)c2ccccc12` gave an inhibition of 72% (USP5; enzyme activity, inhibitor; 17 µM).
`CC(C)[C@@H]1NC(=O)[C@H](Cc2ccccc2)NC(=O)CSC[C@@H](C(N)=O)NC(=O)[C@H](CCC(=O)O)NC(=O)[C@H](CO)NC(=O)[C@H](Cc2c[nH]c3cccc(Cl)c23)NC(=O)[C@H](C2CCCCC2)NC(=O)[C@H](C(C)C)NC(=O)[C@H](Cc2ccc(O)cc2)NC(=O)[C@H](CC(=O)O)NC(=O)[C@H](Cc2c[nH]c3ccccc23)NC(=O)[C@H](Cc2ccc(N)nc2)NC(=O)[C@H](Cc2c[nH]c3ccc(Cl)cc23)NC(=O)[C@H](CCC(=O)O)NC1=O` has a remaining activity of 106% (Interleukin-1 receptor-like 2 (IL1RL2, Homo sapiens, UniProt Q9HB29); reporter gene (SEAP), inhibitor, HEK-Blue IL-36R reporter; HEK-Blue IL-36R cells; 0.41 µM, 6 h, together with: IL-36γ 100 ng/mL).
`CC(=O)N[C@@H](CC(=O)O)C(=O)N[C@@H](CC(C)C)C(=O)N[C@@H](C)C(=O)N[C@@H](CC(=O)O)C(=O)COC(=O)c1c(C)cccc1C` gave a kinact/KI of 2300 M⁻¹ s⁻¹ (CASP4; enzyme activity, inhibitor).
For `C#CCOC(=O)[C@@]1(C)C=C(C(=O)OC(C)(C)C)C(=O)CC1`, “normalized kinase activity” read 0.832 and 1.02 and 0.912 (MAPK8 (Homo sapiens, UniProt P45983); enzyme activity, D-SENSOR; 1.646 µM, single replicate).
`CC(C=CC=C(C)C=CC1=C(C)CCCC1(C)C)=CC=O` — result for “Pearson correlation coefficient”: 0.66 (Rhodopsin (RHO, Homo sapiens, UniProt P08100, E181K); ER retention, immunostaining co-localization, item: opsin with calnexin; COS-7 transfected E181K; 5.00 µM).
The kinact/KI of `CC(=O)N[C@H](C(=O)N[C@@H](CCC(=O)O)C(=O)N[C@@H](CO)C(=O)N[C@@H](CC(=O)O)C(=O)COC(=O)c1c(C)cccc1C)[C@@H](C)O` is reported as 1800 M⁻¹ s⁻¹ (CASP4; enzyme activity, inhibitor).
The Bmax of `[3H]C([3H])([3H])OC1(C2=NCCN2)COc2ccccc2O1` (centres unmarked) is reported as 1.23 ± 0.09 pmol/mg protein (Alpha-2C adrenergic receptor, Δ37-45 deletion (Mus musculus, UniProt Q01337, del37-45); radioligand binding; HEK293 membranes; α2c(Δ37–45)-AR mutant).
With `CC(C)C[C@H](NC(=O)[C@@H](NC(=O)[C@H](Cc1ccccc1)NC(=O)c1ccc(C(C)(C)C)cc1)C1CCCC1)C(=O)N[C@@H](CCCCN(C)C1CC2CCC1C2)C(=O)N[C@@H](CO)C(N)=O` (some centres unmarked) the selectivity ratio was > 110 (Chromobox protein homolog 8 (Homo sapiens, UniProt Q9HC52); TR-FRET displacement; relative to: IC50 CBX7 over IC50 CBX8).
`CC[C@H](C)[C@H](NC(=O)[C@H](CC(=O)O)NC(C)=O)C(=O)N[C@@H](Cc1ccccc1)C(=O)N[C@@H](Cc1ccccc1)C(=O)N[C@@H](CCCNC(=N)N)C(=O)N[C@@H](Cc1ccc(O)cc1)C(=O)N[C@@H](CC(N)=O)C(=O)NCC(=O)N[C@@H](CCCCN)C(=O)N[C@H](C(=O)N[C@@H](Cc1c[nH]c2ccccc12)C(=O)N[C@@H](Cc1c[nH]c2ccccc12)C(=O)N[C@@H](CCCNC(=N)N)C(=O)O)C(C)C` gave a β-strand content of 17% (Insulin (INS, Bos taurus, UniProt P01317); circular dichroism; 0 min, initial stage, together with: INS 350 µM).
With `CC(=O)N[C@H](C(=O)N[C@@H](CCO)C(=O)N[C@H](C(=O)N[C@@H](CC(=O)O)C(=O)COC(=O)c1c(C)cccc1C)C(C)C)C(C)C` the kinact/KI was 7900 M⁻¹ s⁻¹ (CASP9; enzyme activity, inhibitor).
`Nc1nc(SCc2ccc(I)cc2)nn1S(=O)(=O)c1ccc2c(c1)CCO2` — result for “probe labeling increase”: 1.5 fold (Lysophospholipase-like protein 1 (Mus musculus, UniProt Q3UFF7); enzyme activity, activator, gel-based ABPP; purified protein; concentration not given, together with: FP-rhodamine; relative to: DMSO).
`CC(=O)N[C@@H](Cc1ccc(O)cc1)C(=O)N[C@@H](CCCCN)C(=O)N[C@@H](C)C(=O)N[C@@H](CC(=O)O)C(=O)COC(=O)c1c(C)cccc1C` has a kinact/KI of 10800 M⁻¹ s⁻¹ (CASP9; enzyme activity, inhibitor).
For `O=P(O)(O)OC[C@H]1O[C@H](OP(=O)(O)O)[C@H](O)[C@@H](O)[C@@H]1O`, the enzyme activity was 66.1% and 59.9% and 69.2% (Phosphoglycerate mutase 1 (Homo sapiens, UniProt P18669); activator, sugar phosphate screen; concentration not given; relative to: untreated control).
`CS(=O)(=O)c1ccc(-c2ccc(C3CCCCC3)cc2)cn1` gave a hepatic clearance of 2.88 L/h/kg (liver microsome stability; rat liver microsomes; 1 µM).
`CCOC(=O)C(C(=O)c1ccccc1)C1(O)C(=O)c2ccccc2C1=O` (centres unmarked) gave an inhibition of 70% (USP5; enzyme activity, inhibitor; 17 µM).
`O=C(NC1CCOCC1)c1ccc([C@H]2[C@@H](F)[C@@H](F)C[C@@H](F)[C@H]2F)cc1` has a hepatic clearance of 0.234 L/h/kg (liver microsome stability; human liver microsomes; 1 µM, without NADPH).
With `O=c1c(=NNc2nnn[nH]2)c(=O)c2ccccc12` the inhibition was 98% (USP5; enzyme activity, inhibitor; 17 µM).
The kinact/KI of `CCCC[C@H](NC(C)=O)C(=O)N[C@@H](CCC(=O)O)C(=O)N[C@H](C(=O)N[C@@H](CC(=O)O)C(=O)COC(=O)c1c(C)cccc1C)[C@@H](C)O` is reported as 62100 M⁻¹ s⁻¹ (CASP9; enzyme activity, inhibitor).
With `CC(C)Oc1cc(Cl)ccc1CNc1cc(-c2ccccc2)nc2ncnn12` the cAMP luminescence was 32500 a.u. and 45000 a.u. and 42600 a.u. and 38500 a.u. and 38700 a.u. (GPR3 (Homo sapiens, UniProt P46089, Q215A); cAMP level, cAMP GloSensor; 1 nM; higher = more cAMP).
With `Oc1cccc2c1NCCC2` the inhibition was 44% (USP5; enzyme activity, inhibitor; 17 µM).
